Published values of several laboratories.
Every numbered part comes from another study and shows a few of its results, in no order.

Series 1
Target: Histone acetyltransferase KAT6A, winged helix 1, GST fusion (KAT6A, Homo sapiens, UniProt Q92794, residues 1-85)
Method: protein binding microarray
Molecule type: double-stranded DNA, one strand shown
Medium: in vitro
Tested at: not given
Notes: 8-mer, flanks averaged, mean of 2 arrays, mostly near background
Relative to: not given
Direction: higher = stronger binding
Measurement: E-score
Target sequence (chain): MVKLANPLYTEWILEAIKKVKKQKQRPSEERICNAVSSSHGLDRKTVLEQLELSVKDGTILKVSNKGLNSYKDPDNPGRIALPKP
TCGCGGAA: 0.285
GATGCGGA: 0.223
ACATCTCG: -0.133
CAGTGGGG: -0.304
CCACGCAC: 0.236
AAAGGGTA: -0.0361
GTGCTCTA: -0.0713
TATATGCA: -0.0796
CGGAGTGA: 0.0805
ATAGGGTG: -0.211
AACTCATA: -0.171
CCATGAGC: -0.103
CATCGATG: -0.161
GATCATAC: 0.00596
CGTAGAAC: -0.0178
ACGAGAGT: -0.127
ACTTATAT: -0.266
AAGGGCGG: 0.168
CGGACCTA: 0.0992
GGATTCGA: -0.0849

Series 2
Target: Interferon regulatory factor 5, full length, phosphomimetic (IRF5, Homo sapiens, UniProt Q13568-2, residues 1-514, S451D/S453D/S456D/S462D)
Method: protein-binding microarray
Molecule type: double-stranded DNA, one strand shown
Medium: in vitro
Tested at: 940 nM top
Notes: 60-bp whole probe
Together with: salmon DNA 0.4 mg/ml
Relative to: random background probes
Direction: higher = stronger binding
Measurement: fitted relative affinity
Constant ends, left off below: GCCTAGCAC … GTCTTGATTCGCTTGACGCTGCTG
TCACTTTCCACTTTCTTACTGTGCTAG: 2.9 z-score
TTAGGTATCCTACTGTTTTAGTGCTAG: 0.0138 z-score
CTACGTCTGATTTTGCTTTCGTGCTAG: 0.961 z-score
CTTAACCTGGGTCTCTGAAGGTGCTAG: -0.345 z-score
TCAGCTTTCTTTATGCAACTGTGCTAG: 0.819 z-score
GACGATCTCAGTTTGGAGACGTGCTAG: 0.242 z-score
TTAGTTTTCGGTATCGGTTAGTGCTAG: 8.32 z-score
TTAGGTATCAGTATCGGTTAGTGCTAG: 6.72 z-score
TCCCCGGAGCTGGACAGAAGGTGCTAG: -0.742 z-score
TTAGGTCTCGGTCTCTGTTAGTGCTAG: 4.69 z-score
GACGGTTGCGACTATCGGGACGTGCTA: 0.545 z-score
TTAGGTTTCCTTAACCTTTAGTGCTAG: 1.13 z-score
GACGGTCTCCTTGTCCTGACGTGCTAG: 0.0153 z-score
GCAAATATATCAGTGAATTTGTGCTAG: -0.0531 z-score
GACGAACTGGGGTTTCGCGACGTGCTA: 0.455 z-score
GTAGATCTCAGTATCGATTAGTGCTAG: 4.69 z-score

Series 3
Target: Fragile X messenger ribonucleoprotein 1, C-terminal low-complexity region (Fmr1, Mus musculus, UniProt P35922)
Method: RNA Bind-n-Seq
Molecule type: RNA
Medium: in vitro
Tested at: 200 nM
Notes: whole 134-nt RNA, ends assumed
Together with: 150 mM KCl
Relative to: input library
Direction: higher = stronger binding
Measurement: log2 enrichment
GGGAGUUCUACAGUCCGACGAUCGUCCUGUGCUACACAUCGUAUGUACCGAAUCGGGAAAAAGGGAAAAAGGGAAAAAGGGAAAGUAUUAUGUUACGCCGUUCGGAUCUGCACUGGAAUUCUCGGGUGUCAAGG: -0.542
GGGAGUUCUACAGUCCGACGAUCGCAGGAAGUAAAAACAAAUGGAAAUGCUUCGGAUAGUGGCAGGGGUGGGGGUUGAUAAGGAAAGGGUGGGAUGGGAGUGGGUAAAGAGUUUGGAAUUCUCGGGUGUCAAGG: -0.00717
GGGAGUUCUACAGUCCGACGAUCAAGUCCUGUGCUACACAUCGUAUGUACCGAAUCGGGUGGGUUUGGGUUUUUUUGGGAAAGUAUUAUGUUACGCCGUUCGGAUCUGCACUUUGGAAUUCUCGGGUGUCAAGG: 0.874
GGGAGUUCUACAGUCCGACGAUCCCUGUGCUACACAUCGUAUGUACCGAAUCGGAAAAAAAGGGAAAAAAAGGAAAAAAAGGGGAAAGUAUUAUGUUACGCCGUUCGGAUCUGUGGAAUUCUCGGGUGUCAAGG: -1.03
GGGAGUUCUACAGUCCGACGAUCUCCUGUGCUACACAUCGUAUGUACCGAAUCGGGGAGGGGAAAAAAAGGGGUUUUUGGGGAAAGUAUUAUGUUACGCCGUUCGGAUCUGCAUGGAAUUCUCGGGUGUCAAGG: 0.683
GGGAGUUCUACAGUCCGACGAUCUCAAGUCCUGUGCUACACAUCGUAUGUACCGAAUCGGGUGGGAGGGUUUUUGGGAAAGUAUUAUGUUACGCCGUUCGGAUCUGCACUUCCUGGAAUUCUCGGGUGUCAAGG: 1.07
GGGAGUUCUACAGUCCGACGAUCUGGGAGGUGGAUUUUGUUUAUUUUUUUAACUCAUUUCCAGGGGUGGGAAUUUUUUUUUAAUAUGUGUCAUGAAUAAAGUUGUUUUUGAAAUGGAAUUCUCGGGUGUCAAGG: 0.233
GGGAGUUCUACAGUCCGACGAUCUUGCAGAUGAGCUUAUGGGGGGCAAUCUUAAAAAGUCCACAGCAGAUGCAUCCGGCUCGAGGGGCCAUCAGCUUUGAAUAAAUGCUUGUUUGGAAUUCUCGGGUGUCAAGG: -0.00931
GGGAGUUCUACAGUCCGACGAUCAAGUCCUGUGCUACACAUCGUAUGUACCGAAUCGGGAAAAAGGGAAAGGGUUUGGGAAAGUAUUAUGUUACGCCGUUCGGAUCUGCACUUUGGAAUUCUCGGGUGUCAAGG: 0.202
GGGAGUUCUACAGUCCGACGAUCCCUCAAGUCCUGUGCUACACAUCGUAUGUACCGAAUCGGGAAGGGAAGGAAGGAAAGUAUUAUGUUACGCCGUUCGGAUCUGCACUUCCAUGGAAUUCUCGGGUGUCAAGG: -0.274
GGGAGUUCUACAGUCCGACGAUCUUACGAUUAUAUCACCCGGACACACAUCAUGCUUAAGAUUCAACUGGGAGCAUACCAGGGAUGCUCUCUAACGUAAUCAAGGGAAGGUUCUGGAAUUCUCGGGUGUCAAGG: -1.39
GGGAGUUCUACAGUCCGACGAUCUCCUGUGCUACACAUCGUAUGUACCGAAUCGGGGCCCCCGGCCCCCGGGGCCCCCGGGGAAAGUAUUAUGUUACGCCGUUCGGAUCUGCAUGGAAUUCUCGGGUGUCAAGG: -0.989
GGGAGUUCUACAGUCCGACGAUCCACAGACAACACGCACCCACACAGACACAGAGGGAAGGGGUUGGGAUGGGGACAGGGCGCACAGCAGGGCGGGGUAGGACCCCAGCCCCUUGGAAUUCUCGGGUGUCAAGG: 1.15
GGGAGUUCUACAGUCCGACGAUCUAACUUUAGAGGAGGAUCUGAUGGAUAUGGCAGUGGACGUGGAUUUGGGGAUGGCUAUAAUGGGUAUGGAGGAGGACCGGGAGGUGGCAAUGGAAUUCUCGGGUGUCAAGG: 0.195

Series 4
Target: RNA binding protein fox-1 homolog 2, RRM domain, GST-SBP tag (RBFOX2, Homo sapiens, UniProt O43251-10, residues 100-194)
Method: RNA Bind-n-Seq
Molecule type: RNA
Medium: in vitro
Tested at: 365 nM
Notes: natural RNA segment, single round, ends assumed
Relative to: no-protein control
Direction: higher = stronger binding
Measurement: RBNS enrichment (R)
Target sequence (chain): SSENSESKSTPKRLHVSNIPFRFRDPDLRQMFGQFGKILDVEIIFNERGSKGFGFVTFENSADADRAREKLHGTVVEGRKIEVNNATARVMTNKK
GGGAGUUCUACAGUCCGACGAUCAGCAUUCUUGAUUCUUAGCGCUUUCGUGGUGCGUGUUUAUGAGAUAUUAGAACAGCGGAGGCUCUAAAAGCCCAGGAUUCUACUCAGUUAUGAAUGAAAAUCAAACGAAGUGGAAUUCUCGGGUGCCAA: 0.313
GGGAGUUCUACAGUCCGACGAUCACAGACAUACCAUAGGGGUAAGGAACUGAAUGCUGUAAAGGAGUCGGUUCUCAUCUCAGGUUGGUAUCUUUCAUCCAGUCCAAAAUGCAAGCGGCACUAAUGAAUUGUUCUGGAAUUCUCGGGUGCCAA: 0.694
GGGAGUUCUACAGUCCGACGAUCACAAAGGUGGUAAACCUGUAGAUUGGGCCUUAAUUAGCAUUGUACUCUAAUCAAAGGACUCUUUCUAAACCAUAUUUAUAGCUUUCUUAACCUACACAUAGUCUAUACAUUGGAAUUCUCGGGUGCCAA: 0.455
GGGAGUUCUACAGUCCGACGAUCUAGCAGAGAUUUGAUAAUAAAAAGAAAAUCCUAAACAAUGAGAAAUAAAGUUACCUGGUUUCUCUGUUCGAAGGAUUUAUAGUAACAUGAGAACUAGUAUCCCUUUGGAAUGGAAUUCUCGGGUGCCAA: 0.85
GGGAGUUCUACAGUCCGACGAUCAGAUGCCCCGGGACUGAGGCCGCCCUGCACCUUCAGCGGAUUUGGGGAUUAGGCUCUUUUAGGUAACUGGCUUUCCUGCUGGUCCGUGCGGGAAAUUCAGUCUUGAUUUAUGGAAUUCUCGGGUGCCAA: 1.25
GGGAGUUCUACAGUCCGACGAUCGCCCAGAAGUGCCUUGGCUCCAGCCCUGUACCCCUUGGUACUGCCUCUGAACACUCUGGUUUCCCCACCCAACUGCGGCUAAGUCUCUUUUUCCCUUGGAUCAGCCAAGCUGGAAUUCUCGGGUGCCAA: 0.402
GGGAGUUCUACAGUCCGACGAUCUUUGUCUUUUACUUAAGGGUACUAAGCAAGGUCCACUCUAGUGUAGCUGAAGAGAAUGCAUAUUUGGCUACACUAUUUCUGUUUACUGUAUUUUGCUUCCUACUUUAUGUUGGAAUUCUCGGGUGCCAA: 12.7
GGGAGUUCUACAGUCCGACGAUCAGUACCCACCCCGUCCACCUCCCCCAUGAAGGCAGCUGAGCUUUCAGAGCUGGGUUCAAAAAGAAAAUUCUAGUGUCUAUAUGGAGCACUUGGUUUGGGGGUUCAGGCUCUGGAAUUCUCGGGUGCCAA: 0.446
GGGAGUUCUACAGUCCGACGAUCAGUAGCAUGUCAGCUGCUGAUGAAGUAGAAGGCCUGGGUGGCCUGGAAAAAGGACACAGAAUGGGGCUUGUGGGAAAGACCGGGACAAUAAAGCCCACCAUGUAAACCAAUGGAAUUCUCGGGUGCCAA: 0.865
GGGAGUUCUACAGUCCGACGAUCUCUAGGAUGAGACAGAAAAUGAAAGCAUGUUGUUUGCCAGGACACUGUGGGUUUAUAUUGAUGUGUAACAAGUUGAUUUGGAACACUGGACUCUCAUUCUGUUAUUCUGGUGGAAUUCUCGGGUGCCAA: 2.14
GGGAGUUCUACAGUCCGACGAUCUCUGACCCUUGGGCCUGGGCCUCUGCCCCUCCCAACCCAGCCCUCGUCUCCCUCGACAGCGCCCCUGCUGUCUUCCCCACCGCAGUCACCACCACCCGAAAUGCCACGUGUGGAAUUCUCGGGUGCCAA: 0.294
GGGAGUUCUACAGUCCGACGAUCCUGCUGGAGGCAGGGCACCUGCUGCGACCCAGAUUCUUCUGCAGGAUGUGUCUGUCUUUGUCACGGUGGACAGAGGGUGACAUCAUAGGAGCAGCUCGCUGGCCAGAAGGUGGAAUUCUCGGGUGCCAA: 0.42
